Measured values of several laboratories.
Protocols differ between the studies behind these lines. “And” joins repeats or separate records; there may be more than shown.
Target: Dual specificity tyrosine-phosphorylation-regulated kinase 3 (DYRK3, Homo sapiens, UniProt O43781)

| SMILES | assay | conditions | how to read | quantity | value |
| --- | --- | --- | --- | --- | --- |
| Cc1cccc(O[C@H]2CCC[C@@H](C(C)CNCc3ccncc3)C2)c1 (relative stereo) | enzyme activity, inhibitor | 1 µM |  | inhibition | 3% |
| Nc1nc(Nc2ccccc2)sc1C(=O)c1ccccc1 | enzyme activity, inhibitor | 10 µM |  | remaining activity | 51% |
| CCn1cc(C(=O)O)c(=O)c2c(N)c(F)c(NC3CCCCC3)cc21 | kinase activity | 0.1 µM, with: ATP at Km |  | inhibition | -9.5% |
| Nc1ncc(-c2cc(-c3cnn(CC(F)(F)F)c3)ncc2F)nc1C(=O)NC1CNCC(F)C1 (centres unmarked) | enzyme activity | 1 µM | reference: DMSO control | remaining activity | 84% |
| CN1CC[C@@H](COc2cnc(C#N)cc2-c2ccn3nc(NC(=O)C4CC4)cc3c2)C1 | enzyme activity, inhibitor | 1 µM |  | inhibition | 6% |
| NC(=O)[C@@H](O)C[C@H]1CCc2sc3ncnc(O[C@H]4CC[C@H](N5CCOCC5)CC4)c3c21 | enzyme activity, inhibitor | 10 µM |  | inhibition | 7% |
| O=C(Cc1ccc(OCc2ccccc2)cc1)NC1(C(=O)O)CCN(C(=O)c2ccc(-c3cccc(Cl)c3)cc2)CC1 | enzyme activity, inhibitor | 10 µM |  | activity vs control | 97% |
| Cc1cccc(-c2ccc3nc(NC(=O)C4CCCO4)nn3c2)c1 (centres unmarked) | enzyme activity, Dundee kinase panel | 10 µM |  | remaining activity | 59% |
| C=CC(=O)N1Cc2nc(-c3cc(-c4cc(Cl)cnc4Cl)c(F)cc3F)n(-c3ccncn3)c2C1 | cell-free assay, inhibitor | 1 µM |  | inhibition | 7.3% |
| Cc1cccc(-c2ccc3nc(NC(=O)C4CCOCC4)nn3c2)c1 | enzyme activity, Dundee kinase panel | 10 µM |  | remaining activity | 33% |
| NC(=O)C[C@H]1CCc2sc3ncnc(O[C@H]4CC[C@H](N5CCOCC5)CC4)c3c21 | enzyme activity, inhibitor | 10 µM |  | inhibition | 11% |
| CNC(=O)C[C@H](Cc1ccc(C#N)cc1)NC(=O)c1cc(-c2ccc(CN[C@H](C)c3ccc(C)cc3)o2)ccc1Cl | enzyme activity, inhibitor | 1 µM |  | activity vs control | 107% |
| CN1CCN(Cc2ccc(-c3ccc(CO[C@H]4CCC[C@@H]4NC(=O)c4cc(-c5cnn(C)c5)cnc4N)cc3)cc2)CC1 | enzyme activity, inhibitor | 0.1 µM |  | inhibition | 4% |
| C=CC(=O)Nc1cccc(-c2cnc3[nH]cc(C(=O)NC(C)(C)C)c3n2)c1 | kinase activity | 0.1 µM |  | inhibition | 1% and 3% |

Repeated from above:
| SMILES | assay | conditions | how to read | quantity | value |
| --- | --- | --- | --- | --- | --- |
| Cc1cccc(O[C@H]2CCC[C@@H](C(C)CNCc3ccncc3)C2)c1 (relative stereo) | enzyme activity, inhibitor | 1 µM |  | inhibition | 3% |
| O=C(Cc1ccc(OCc2ccccc2)cc1)NC1(C(=O)O)CCN(C(=O)c2ccc(-c3cccc(Cl)c3)cc2)CC1 | enzyme activity, inhibitor | 10 µM |  | activity vs control | 97% |
